{"data": "Experimental data gathered from unrelated publications", "note": "Each line is one published result; not all experiments were run side by side. ± marks the error that the study gave."}
{"SMILES": "O=C([O-])CN1CCN(CC(=O)[O-])CCN(CC(=O)NC[C@H]2CC[C@H](C(=O)N[C@H](Cc3cnc4ccccc4c3)C(=O)NCCCC[C@H](NC(=O)N[C@@H](CCC(=O)O)C(=O)O)C(=O)O)CC2)CCN(CC(=O)[O-])CC1.[64Cu+2]", "assay": "ex vivo gamma counting", "test system": "22Rv1 tumour-bearing mice, stomach", "setting": "intravenous, 0.74 MBq, 2 h post-injection", "tissue uptake": "9.92 %ID/g"}
{"SMILES": "CC(C)C[C@H](NC(=O)[C@@H](CCCCNC(=O)[C@@H](Cc1ccccc1)NC(=O)CCCCCCCNC(=O)CN1CCN(CC(=O)O)CCN(CC(=O)O)CCN(CC(=O)O)CC1)NC(=O)[C@H](Cc1ccc(O)cc1)NC(=O)[C@H](CO)NC(=O)[C@H](Cc1c[nH]c2ccccc12)NC(=O)[C@H](Cc1c[nH]cn1)NC(=O)[C@@H]1CCC(=O)N1)C(=O)N[C@@H](CCCNC(=N)N)C(=O)N1CCC[C@H]1C(=O)NCC(N)=O [indium-111 labelled]", "test system": "male athymic nude mice, DU-145 prostate cancer xenograft, muscle", "setting": "intravenous, dose not given, 1 h, added: unlabeled blocking peptide 10 µg", "tissue uptake": "0.15 ± 0.04 %ID/g"}
{"SMILES": "CCCC[C@H](NC(=O)CCCCCCCNC(=O)CN1CCN(CC(=O)O)CCN(CC(=O)O)CC1)C(=O)N[C@H]1CC(=O)NCCCC[C@@H](C(N)=O)NC(=O)[C@H](Cc2c[nH]c3ccccc23)NC(=O)[C@H](CCCNC(=N)N)NC(=O)[C@@H](Cc2ccccc2)NC(=O)[C@H](Cc2c[nH]cn2)NC1=O [fluorine-18 labelled]", "test system": "C57 mice B16-F10 melanoma, spleen", "setting": "intravenous, 0.37 MBq, 0.5 h", "tissue uptake": "0.84 ± 0.12 %ID/g"}
{"SMILES": "N#C[C@@H]1CCCN1C(=O)CNC(=O)c1ccnc2ccc(OCCCN3CCN(C(=O)CCc4ccc5c(c4)CN4CCN6CC(=O)[O][68Ga-]([O]C(=O)C4)([O]5)[O]c4ccc(CCC(=O)N5CCN(CCCOc7ccc8nccc(C(=O)NCC(=O)N9CCC[C@H]9C#N)c8c7)CC5)cc4C6)CC3)cc12", "test system": "BALB/c nude mice, U-87 MG xenograft, brain", "setting": "1 h", "tissue uptake": "0.08 ± 0.01 %ID/g"}
{"SMILES": "O=C(NCC1OC2CCC=CCCC2O1)c1ccc(COCCOCCOCC[18F])cc1 (centres unmarked)", "test system": "healthy female BALB/c nude mice, liver", "setting": "intravenous, 7.4 MBq per mouse, 120 min", "tissue uptake": "2.6 ± 0.1 %ID/g"}
{"SMILES": "N#C[C@@H]1CCCN1C(=O)CNC(=O)c1ccnc2ccc(OCCCN3CCN(C(=O)CCc4ccc5c(c4)CN4CCN(Cc6cc(CCC(=O)O)ccc6O)CC(=O)[O][Al-]([18F])([O]C(=O)C4)[O]5)CC3)cc12 (some centres unmarked)", "test system": "BALB/c nude mice, U-87 MG xenograft, gallbladder", "setting": "1 h, blocked 60 min, added: DOTA-FAPI-04 40 nmol co-injected", "tissue uptake": "102 ± 16.8 %ID/g"}
{"SMILES": "CCCC[C@H](NC(=O)CNC(=O)CNC(=O)[C@H](CCCCNC(=O)[C@H](CC(N)=O)NC(=O)C(C)c1ccc(CC(C)C)cc1)NC(=O)CN1CCN(CC(=O)O)CCN(CC(=O)O)CCN(CC(=O)O)CC1)C(=O)N[C@H]1CC(=O)NCCCC[C@@H](C(N)=O)NC(=O)[C@H](Cc2c[nH]c3ccccc23)NC(=O)[C@H](CCCNC(=N)N)NC(=O)[C@@H](Cc2ccccc2)NC(=O)[C@H](Cc2c[nH]cn2)NC1=O (some centres unmarked) [lutetium-177 labelled]", "test system": "C57 mice, tumour-bearing, tumor", "setting": "2 h", "tissue uptake": "25.5 ± 1.31 %ID/g"}
{"SMILES": "COc1ccc(Nc2nc(Nc3ccc(OCCOCC[18F])cc3)ncc2Br)cc1", "test system": "ICR mice, S180 tumour-bearing, brain", "setting": "intravenous, 370 kBq, 60 min", "tissue uptake": "2.05 ± 0.32 %ID/g"}
{"SMILES": "CCCC[C@H](NC(=O)CNC(=O)CNC(=O)[C@H](CCCCNC(=O)[C@H](CC(=O)O)NC(=O)C(C)c1ccc(CC(C)C)cc1)NC(=O)CN1CCN(CC(=O)O)CCN(CC(=O)O)CCN(CC(=O)O)CC1)C(=O)N[C@H]1CC(=O)NCCCC[C@@H](C(N)=O)NC(=O)[C@H](Cc2c[nH]c3ccccc23)NC(=O)[C@H](CCCNC(=N)N)NC(=O)[C@@H](Cc2ccccc2)NC(=O)[C@H](Cc2c[nH]cn2)NC1=O (some centres unmarked) [lutetium-177 labelled]", "test system": "C57 mice, tumour-bearing, muscle", "setting": "intravenous, 0.037 MBq, 0.5 h", "tissue uptake": "0.95 ± 0.05 %ID/g"}
{"SMILES": "Cc1cc(C)n(CCN(CCN)CCCCCCNC(=O)[C@@H](N)Cc2c[nH]c3ccccc23)n1.[99Tc+].[C-]#[O+].[C-]#[O+].[C-]#[O+]", "test system": "BALB/c nude mice A549 xenograft, tumor", "setting": "intravenous, 4 h", "tissue uptake": "0.56 ± 0.08 %ID/g"}
{"SMILES": "COc1ccc2c(c1)C(C)(C)C(/C=C/C1=C(Oc3ccc(C(=O)NCCCCOc4cc(CN(Cc5ccccn5)Cc5ccccn5)cc(CN(Cc5ccccn5)Cc5ccccn5)c4)cc3)C(=C/C=C3/N(CCCCS(=O)(=O)[O-])c4ccc(OC)cc4C3(C)C)CCC1)=[N+]2CCCCS(=O)(=O)[O-].O=[N+]([O-])[O-].O=[N+]([O-])[O-].[99Tc+].[C-]#[O+].[C-]#[O+].[C-]#[O+].[Zn+2]", "test system": "BALB/c mice, S. aureus myositis, bone", "setting": "12 h post-injection", "tissue uptake": "0.86 %ID/g"}
{"SMILES": "O=C(NCC1OC2CCC=CCCC2O1)c1ccc([18F])nc1 (centres unmarked)", "test system": "healthy female BALB/c nude mice, blood", "setting": "intravenous, 7.4 MBq per mouse, 5 min", "tissue uptake": "5.2 ± 1 %ID/g"}
{"SMILES": "O=C(O)CCCOc1ccc([18F])cc1-c1cc(-c2ccccc2C(F)(F)F)n(-c2ccccc2)n1", "test system": "mice, small intestine", "setting": "intravenous, 60 min", "tissue uptake": "2.16 ± 0.23 %ID/g"}
{"SMILES": "CCCC[C@H](NC(=O)COCCOCCNC(=O)CN1CCN(CC(=O)O)CCN(CC(=O)O)CC1)C(=O)N[C@H]1CC(=O)NCCCC[C@@H](C(N)=O)NC(=O)[C@H](Cc2c[nH]c3ccccc23)NC(=O)[C@H](CCCNC(=N)N)NC(=O)[C@@H](Cc2ccccc2)NC(=O)[C@H](Cc2c[nH]cn2)NC1=O [fluorine-18 labelled]", "test system": "C57 mice B16-F10 melanoma, kidneys", "setting": "intravenous, 0.37 MBq, 2 h", "tissue uptake": "1.32 ± 0.3 %ID/g"}
{"SMILES": "COc1ccc(Nc2nc(Nc3ccc(OCCOCCOCC[18F])cc3)ncc2Br)cc1", "test system": "ICR mice, S180 tumour-bearing, brain", "setting": "intravenous, 370 kBq, 30 min", "tissue uptake": "1.91 ± 0.1 %ID/g"}
{"SMILES": "N#C[C@@H]1CCCN1C(=O)CNC(=O)c1ccnc2ccc(OCCCN3CCN(C(=O)CCc4ccc(O)c(CN5CCN6CC(=O)[O][Al-]([18F])([O]C(=O)C5)[O]c5ccc(CCC(=O)N7CCN(CCCOc8ccc9nccc(C(=O)NCC(=O)N%10CCC[C@H]%10C#N)c9c8)CC7)cc5C6)c4)CC3)cc12 (some centres unmarked)", "test system": "BALB/c nude mice, U-87 MG xenograft, heart", "setting": "1 h, blocking, added: DOTA-FAPI-04 40 nmol/mouse co-injected", "tissue uptake": "2.03 ± 0.34 %ID/g"}
{"SMILES": "Cc1cc(C)n(CCN(CCN)CCCCCCNC(=O)[C@@H](N)Cc2c[nH]cn2)n1.[99Tc+].[C-]#[O+].[C-]#[O+].[C-]#[O+]", "test system": "BALB/c nude mice MCF7 xenograft, tumor", "setting": "intravenous, 4 h", "tissue uptake": "0.27 ± 0.1 %ID/g"}
{"note": "Repeated from above:"}
{"SMILES": "COc1ccc(Nc2nc(Nc3ccc(OCCOCC[18F])cc3)ncc2Br)cc1", "test system": "ICR mice, S180 tumour-bearing, brain", "setting": "intravenous, 370 kBq, 60 min", "tissue uptake": "2.05 ± 0.32 %ID/g"}
{"SMILES": "CCCC[C@H](NC(=O)CNC(=O)CNC(=O)[C@H](CCCCNC(=O)[C@H](CC(=O)O)NC(=O)C(C)c1ccc(CC(C)C)cc1)NC(=O)CN1CCN(CC(=O)O)CCN(CC(=O)O)CCN(CC(=O)O)CC1)C(=O)N[C@H]1CC(=O)NCCCC[C@@H](C(N)=O)NC(=O)[C@H](Cc2c[nH]c3ccccc23)NC(=O)[C@H](CCCNC(=N)N)NC(=O)[C@@H](Cc2ccccc2)NC(=O)[C@H](Cc2c[nH]cn2)NC1=O (some centres unmarked) [lutetium-177 labelled]", "test system": "C57 mice, tumour-bearing, muscle", "setting": "intravenous, 0.037 MBq, 0.5 h", "tissue uptake": "0.95 ± 0.05 %ID/g"}
{"SMILES": "Cc1cc(C)n(CCN(CCN)CCCCCCNC(=O)[C@@H](N)Cc2c[nH]c3ccccc23)n1.[99Tc+].[C-]#[O+].[C-]#[O+].[C-]#[O+]", "test system": "BALB/c nude mice A549 xenograft, tumor", "setting": "intravenous, 4 h", "tissue uptake": "0.56 ± 0.08 %ID/g"}
